Experimental data pooled from the literature.
Protocols differ between the studies behind these lines. “And” joins repeats or separate records; there may be more than shown. ± marks the error that the study gave.

O=C1C(P(=O)(O)O)CCCN1O (stereo not drawn)  tolerated dose (nude mice; intravenous, dose escalation): ≤ 300 mg/kg/day
C[C@@H]1CC[C@H]2[C@@H](C)CO[C@@H]3O[C@@]4(C)CC[C@@H]1[C@]32OO4  measured concentration (refers to: compound; rat, plasma; 2.00 ng/mL spiked, three freeze/thaw cycles): 2.05 ± 0.08 ng/mL
CC(C)C[C@@H](NC(=O)[C@@H](CCCCN)NC(=O)CNC(=O)CNC(=O)[C@@H]1CSSC[C@H](N)C(=O)NCC(=O)N[C@@H](CCCNC(=N)N)C(=O)N[C@@H](CCCNC(=N)N)C(=O)N[C@@H](C)C(=O)NCC(=O)NCC(=O)N[C@@H](CO)C(=O)N1)C(=O)N[C@H](C)C(=O)N[C@H](CCCCN)C(=O)N[C@H](CC(C)C)C(=O)N[C@H](C)C(=O)N[C@H](CCCCN)C(=O)N[C@H](CCCCN)C(=O)N[C@H](CC(C)C)C(=O)N[C@H](C)C(=O)N[C@H](CCCCN)C(=O)N[C@H](CC(C)C)C(=O)N[C@H](C)C(=O)N[C@H](CCCCN)C(=O)O  half-life (cynomolgus monkey, plasma; intravenous, 9 mg/kg, infusion): 40.2 min
CC(C)[C@H](NC(=O)CNC(=O)[C@H](CCC(N)=O)NC(=O)[C@H](C)N)C(=O)O  subjects with adverse events (healthy human; intravenous, 30 mg/kg single dose; reference: subjects): 16.7%
CCCC[C@H]1C(=O)N(C)[C@@H](CCCC)C(=O)N[C@@H](CCCNC(=O)CN2CCN(CC(=O)O)CCN(CC(=O)O)CCN(CC(=O)O)CC2)C(=O)N[C@H](C(=O)NCC(N)=O)CSCC(=O)N[C@@H](Cc2ccc(O)cc2)C(=O)N(C)[C@@H](C)C(=O)N[C@@H](CC(N)=O)C(=O)N2CCC[C@H]2C(=O)N[C@@H](Cc2c[nH]cn2)C(=O)N[C@@H](CC(C)C)C(=O)N(C)CC(=O)N[C@@H](Cc2c[nH]c3ccccc23)C(=O)N[C@@H](CO)C(=O)N[C@@H](Cc2c[nH]c3ccccc23)C(=O)N1C [gallium-68 labelled]  tumour to muscle ratio (static PET; NOD/SCID mice, CHO-hPD-L1 xenograft, CHO-hPD-L1 tumour; intravenous, 1 h post injection, before atezolizumab treatment): 7.72 ± 0.48
CSCC[C@@H]1NC(=O)[C@@H]2CSSC[C@H](NC(=O)[C@H](CO)NC(=O)[C@H](C)N)C(=O)N[C@@H](CCCNC(=N)N)C(=O)N[C@@H]([C@@H](C)O)C(=O)N3CCC[C@H]3C(=O)N[C@@H](CCCCN)C(=O)N[C@@H](CC(=O)O)C(=O)N[C@H]3CSSC[C@H](NC(=O)[C@H](CCCCN)NC(=O)[C@H](CCCNC(=N)N)NC(=O)[C@H](CC(N)=O)NC1=O)C(=O)N[C@@H](CCCCN)C(=O)N[C@H]1CSSC[C@H](NC(=O)[C@@H]4CCCN4C(=O)[C@H](CC(=O)O)NC(=O)[C@H](C)NC3=O)C(=O)N[C@@H](C)C(=O)N[C@@H](CCCCN)C(=O)N[C@@H](CCC(=O)O)C(=O)N[C@@H]([C@@H](C)O)C(=O)NCC(=O)N[C@@H](CSSC[C@@H](C(N)=O)NC(=O)[C@H](CCCNC(=N)N)NC(=O)[C@H](CC(N)=O)NC1=O)C(=O)N1CCC[C@H]1C(=O)N[C@@H](Cc1ccc(O)cc1)C(=O)NCC(=O)N[C@@H](CCCCN)C(=O)N2  indirect bilirubin (DA rat, pristane-induced arthritis, serum; subcutaneous, 0.1 mg/kg once weekly, end of 21-day trial): 0 mg/dL
[11CH3]n1c(=O)n(CCCO)c(=O)c2c1nc(Oc1cccc(OC(F)(F)F)c1)n2Cc1ccc(Cl)cc1  time to maximum SUV (PET; cynomolgus monkey, male, whole brain): 6 to 10 min
CC[C@H](C)C(=O)N1CCC(NC(=O)Nc2ccc(OC(F)(F)F)c(F)c2)CC1  subjects with UTI TEAE (healthy volunteers; oral, 0.5 mg single dose): 16.7%
CN[C@](C)(C[18F])C(=O)O  tissue uptake (SCID mouse U87 xenograft, brain; 120 min, post injection): 0.3 ± 0.1 %ID/g
COc1cc(NC(=O)C(=O)c2c(C)n(Cc3ccc(Cl)cc3)c3ccc(C)cc23)ccn1  AUC (cynomolgus monkey, plasma; intravenous, 1 mg/kg): 1900 ng·h/mL
CCCCCCCCCCCCC(=O)O.O=C1CCCC2C3CCCN4CCCC(CN12)C34 (stereo not drawn)  critical aggregation concentration (water; concentration not given, 298.15 K): 0.00096 mol/kg
COc1cc2c3cc(OC)c(OC)cc3c3c[n+]4c(cc3c2cc1OC)CCCC4  CC50 (swine cells; 24 (unit not given)): > 100 µM
C[C@H]1N=C(c2ccccc2F)c2cc(Br)ccc2-n2cnc(C(=O)OC3O[C@H](C(=O)O)[C@@H](O)[C@H](O)[C@H]3O)c21 (stereo partly drawn)  cumulative excretion (LC-MS/MS; Swiss Webster mouse, female, urine; oral, 750 µg parent drug, 0 to 24 h): 5.8 ± 0.4%
COc1cc(-c2cncc(-c3ccc(N4CCN([11CH3])CC4)cc3)c2C)cc(OC)c1OC  peak SUV (dynamic PET; Sprague-Dawley rats male, whole brain; intravenous, 16 to 23 MBq): 1.8 and ~2
[2H]C([2H])([2H])C([2H])([2H])C([2H])([2H])OC(C(=O)OC1CCNCC1)(c1ccccc1)c1ccccc1  adverse drug reactions (refers to: aspartate aminotransferase increased; healthy Japanese male; oral, 12 mg once daily, 16 days): 0%
CC(C)C[C@H](NC(=O)[C@H](Cc1ccc(O)cc1)NC(=O)[C@H](Cc1c[nH]cn1)NC(=O)[C@@H](NC(=O)[C@H](CC(C)C)NC(=O)[C@H](C)NC(=O)[C@H](C)NC(=O)[C@H](CCCCN)NC(=O)CNC(=O)[C@@H](NC(=O)[C@H](Cc1c[nH]cn1)NC(=O)[C@H](CCCCN)NC(=O)CNC(=O)[C@@H](NC(=O)[C@H](Cc1c[nH]cn1)NC(=O)[C@H](C)NC(=O)[C@H](C)NC(=O)[C@H](CCCCN)NC(=O)[C@H](CCCCN)NC(=O)[C@H](Cc1ccccc1)NC(=O)[C@H](Cc1ccccc1)NC(=O)[C@H](CO)NC(=O)CNC(=O)[C@H](Cc1c[nH]c2ccccc12)NC(=O)CN)C(C)C)C(C)C)[C@@H](C)O)C(N)=O  acute toxic concentration (zebrafish embryos; 1 h, 4, 28, 52 hpf): 5 µg/mL
COC(=O)C[C@](O)(CCCC(C)(C)OC(C)=O)C(=O)O[C@@H]1C(OC)=C[C@]23CCCN2CCc2cc4c(cc2[C@H]13)OCO4  concentration (CD1 mouse, esophagus; subcutaneous, 1 mg/kg, 2 h): 28.4 ng/mL
CC(C)[C@H](NC(=O)[C@@H](NC(=O)[C@H](CCCNC(=N)N)NC(=O)[C@H](CCCNC(=N)N)NC(=O)[C@H](CCCNC(=N)N)NC(=O)[C@H](CCC(N)=O)NC(=O)[C@H](CCCNC(=N)N)NC(=O)[C@H](CCCNC(=N)N)NC(=O)[C@H](CCCCN)NC(=O)[C@H](CCCCN)NC(=O)[C@H](CCCNC(=N)N)NC(=O)CN)[C@@H](C)O)C(=O)N[C@H](C(=O)N[C@@H](CO)C(=O)N1CCC[C@H]1C(=O)O)[C@@H](C)O  brain weight (mouse ICR; intranasal, high dose daily, 4 weeks, outcome decreased; reference: vehicle): decreased
COc1cc2ncnc(Oc3cccc(N[11C](=O)Nc4cc(C(C)(C)C(F)(F)F)on4)c3)c2cc1OC  intact compound in plasma (radio-HPLC; female Balb/c nude mice, plasma; intravenous, 5 min; reference: radioactivity): 92.2%
CC(C)C[C@@H](N)C(=O)NCC(=O)N[C@H](C)C(=O)N[C@H](CO)C(=O)N[C@H](Cc1c[nH]c2ccccc12)C(=O)N[C@H](Cc1c[nH]cn1)C(=O)N[C@H](CCCNC(=N)N)C(=O)N1CCC[C@@H]1C(=O)N[C@H](CC(=O)O)C(=O)N[C@H](CCCCN)C(=O)N[C@H](CS)C(=O)N[C@H](CS)C(=O)N[C@H](CC(C)C)C(=O)NCC(=O)N[C@H](Cc1ccc(O)cc1)C(=O)N[C@H](CCC(N)=O)C(=O)N[C@H](CCCCN)C(=O)N[C@H](CCCNC(=N)N)C(=O)N1CCC[C@@H]1C(=O)N[C@H](CC(C)C)C(=O)N1CCC[C@@H]1C(N)=O  accuracy (LC-MS/MS; processed rat plasma; 25 ng/mL, 4 h, 8 °C, autosampler storage; reference: nominal): 86.9%
CCNc1cc2[o+]c3cc(NCC)c(C)cc3c(-c3ccccc3C(=O)OCCOCC[18F])c2cc1C  tissue uptake (rat, bone; 60 min): 0.29 ± 0.05 %ID/g

Some of these lines once more:
COC(=O)C[C@](O)(CCCC(C)(C)OC(C)=O)C(=O)O[C@@H]1C(OC)=C[C@]23CCCN2CCc2cc4c(cc2[C@H]13)OCO4  concentration (CD1 mouse, esophagus; subcutaneous, 1 mg/kg, 2 h): 28.4 ng/mL
CC(C)[C@H](NC(=O)[C@@H](NC(=O)[C@H](CCCNC(=N)N)NC(=O)[C@H](CCCNC(=N)N)NC(=O)[C@H](CCCNC(=N)N)NC(=O)[C@H](CCC(N)=O)NC(=O)[C@H](CCCNC(=N)N)NC(=O)[C@H](CCCNC(=N)N)NC(=O)[C@H](CCCCN)NC(=O)[C@H](CCCCN)NC(=O)[C@H](CCCNC(=N)N)NC(=O)CN)[C@@H](C)O)C(=O)N[C@H](C(=O)N[C@@H](CO)C(=O)N1CCC[C@H]1C(=O)O)[C@@H](C)O  brain weight (mouse ICR; intranasal, high dose daily, 4 weeks, outcome decreased; reference: vehicle): decreased
